Measured values gathered from unrelated publications.
Every numbered part comes from another study and shows a few of its results, in no order. Substitutions count along the parent as printed.
Chain of UniProt P41595 (whole entry, looked up): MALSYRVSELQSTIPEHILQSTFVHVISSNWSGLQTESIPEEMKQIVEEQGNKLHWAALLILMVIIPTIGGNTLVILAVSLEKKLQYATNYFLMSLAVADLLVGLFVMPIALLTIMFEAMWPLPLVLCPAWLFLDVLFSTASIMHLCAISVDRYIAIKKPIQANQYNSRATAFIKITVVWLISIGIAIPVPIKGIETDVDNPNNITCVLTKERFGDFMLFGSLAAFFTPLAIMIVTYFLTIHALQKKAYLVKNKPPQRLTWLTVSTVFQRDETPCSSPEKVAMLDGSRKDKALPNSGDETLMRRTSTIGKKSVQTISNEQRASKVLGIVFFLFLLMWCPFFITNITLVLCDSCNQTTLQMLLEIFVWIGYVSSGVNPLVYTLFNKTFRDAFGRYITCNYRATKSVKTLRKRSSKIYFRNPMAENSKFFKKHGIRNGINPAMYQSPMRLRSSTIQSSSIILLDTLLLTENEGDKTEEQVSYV

Block 1 — method: RNA Bind-n-Seq; molecule type: RNA; medium: in vitro; concentration: not given; baseline: input RNA pool; direction: higher = stronger binding; endpoint: bound/input enrichment
Target: RING finger protein unkempt homolog, zinc fingers 1-6, GST-SBP tag (UNK, Homo sapiens, UniProt Q9C0B0, residues 30-357)
Notes: RNA with constant flanks, human and mouse sites, ends assumed
Shared flanks, not repeated: GGGAGUUCUACAGUCCGACGAUC … CAACAGAGGAUUGAGCAUCA
Construct (chain): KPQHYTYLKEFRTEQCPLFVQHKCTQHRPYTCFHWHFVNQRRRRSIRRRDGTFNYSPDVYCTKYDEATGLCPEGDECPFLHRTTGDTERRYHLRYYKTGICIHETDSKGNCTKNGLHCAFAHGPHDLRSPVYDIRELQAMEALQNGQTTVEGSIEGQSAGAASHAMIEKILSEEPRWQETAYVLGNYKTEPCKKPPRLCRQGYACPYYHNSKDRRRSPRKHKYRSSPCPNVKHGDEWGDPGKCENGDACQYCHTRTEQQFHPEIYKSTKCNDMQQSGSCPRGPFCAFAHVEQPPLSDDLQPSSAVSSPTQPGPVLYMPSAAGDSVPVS
CGCUGUCUUGUGGACCCGCACUUCCCACCCGAGACCUCUCACUGAGCCCGAGCCGCGCGCGACAUGAGCCACGGGAAGGGAACCGACAUGCUCCCGGAGAUCGCCGCCGCCGUGGGCUUC: 0.143 ratio
GGAGCAACAAAGCCACUGCGGCCUCCAUUUGGGCCAAGCUCUGACUGCAAUGAUGCCUCUGCCCCGACCCGGGCCUCGCUGUGACUGACAAUGCCGCUGCAUCUUUUCAGCAGUCAUUGA: 0.0498 ratio
UCCUGUCUCGAUUUACUCGAAAUGAGUUUAAUCUGGAAAGCAAGAGCACCAUUGGAGUAGAGUUUGCAACAAGAAGCAUCCAGGUUGAUGGAAAAACAAUAAAGGCACAGAUAUGGGACA: 0.512 ratio
UUAUCCUGUUAUAGUGGUGUGCUGGAAUUCCCUGAGAUGGAACUGGUAAAUUACUUGACUGCUGCAAGUUUUCUUCAGAUGAGCCACAUUGUAGAACGGUGCACACAGGCCCUGUGGAAG: 0.635 ratio
UGGUGGAUUGGAAUUAAGUGGGUUGCAGGAGGACAAGCAUUUUUUGGAGCCCAGUUGAAUUCCUUUAUCCAUGUGAUUAUGUACUCAUACUAUGGGUUAACUGCAUUUGGCCCAUGGAUU: 0.127 ratio
CUACCUAACCCUUUCUUAUUUGUAUUUGUUUUAGUAUUGUGAAGUUGUGUUAAAUAGUACUAGCUAGAAAUACAAAUUUCUGGUUAUCAUUUCUCUUCCCUGUGGCACUUGACAUUUUAA: 1.2 ratio
AUGGUUGUGAAAGGUGUUUGGGGUCUAAAACAUGAUUUUUCCUGGCACAUAUUUCAAAGCAUAGACUUUGUUACCUGCUGCUUCUUGUCUAAUUUACAGGGAUAUUUAAUUUUGUAAGGU: 0.308 ratio
CUGCCCUACGUGCUGUGGCUGCUCAUAACCGCCCAGAUCUUCUCCUACCUGGGCCUGAACUUCGCGCGUGCCCACGCGGCUAGUGACACGGUGGGCUGGCAGGUCUUCUUUGUCUUCUCC: 0.211 ratio

Block 2 — target: CEP164, C-terminal peptide (human); method: DHFR complementation, deep sequencing; medium: yeast; baseline: wild type; direction: higher = weaker binding; endpoint: binding free energy change
Notes: single substitutions, model-inferred values
Starting sequence: PDZK1, PDZ domain 2 (human); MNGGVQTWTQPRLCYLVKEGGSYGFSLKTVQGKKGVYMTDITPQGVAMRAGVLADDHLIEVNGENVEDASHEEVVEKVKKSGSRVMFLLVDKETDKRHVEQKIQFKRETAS; partner HNRVKVYRF
E19F: 0.476 kcal/mol
T109E: -0.258 kcal/mol
E73M: 0.111 kcal/mol
R97Y: -0.174 kcal/mol
K80D: 0.592 kcal/mol
V61Y: 1.04 kcal/mol
G3P: 0.0236 kcal/mol
T109S: -0.135 kcal/mol

Block 3 — effect on: enzyme activity; action: inhibitor; concentration: 0.5 µM; baseline: control; endpoint: remaining activity
Target: Serine/threonine-protein kinase SIK2 (SIK2, Homo sapiens, UniProt Q9H0K1)
Chain of UniProt Q9H0K1 (whole entry, looked up): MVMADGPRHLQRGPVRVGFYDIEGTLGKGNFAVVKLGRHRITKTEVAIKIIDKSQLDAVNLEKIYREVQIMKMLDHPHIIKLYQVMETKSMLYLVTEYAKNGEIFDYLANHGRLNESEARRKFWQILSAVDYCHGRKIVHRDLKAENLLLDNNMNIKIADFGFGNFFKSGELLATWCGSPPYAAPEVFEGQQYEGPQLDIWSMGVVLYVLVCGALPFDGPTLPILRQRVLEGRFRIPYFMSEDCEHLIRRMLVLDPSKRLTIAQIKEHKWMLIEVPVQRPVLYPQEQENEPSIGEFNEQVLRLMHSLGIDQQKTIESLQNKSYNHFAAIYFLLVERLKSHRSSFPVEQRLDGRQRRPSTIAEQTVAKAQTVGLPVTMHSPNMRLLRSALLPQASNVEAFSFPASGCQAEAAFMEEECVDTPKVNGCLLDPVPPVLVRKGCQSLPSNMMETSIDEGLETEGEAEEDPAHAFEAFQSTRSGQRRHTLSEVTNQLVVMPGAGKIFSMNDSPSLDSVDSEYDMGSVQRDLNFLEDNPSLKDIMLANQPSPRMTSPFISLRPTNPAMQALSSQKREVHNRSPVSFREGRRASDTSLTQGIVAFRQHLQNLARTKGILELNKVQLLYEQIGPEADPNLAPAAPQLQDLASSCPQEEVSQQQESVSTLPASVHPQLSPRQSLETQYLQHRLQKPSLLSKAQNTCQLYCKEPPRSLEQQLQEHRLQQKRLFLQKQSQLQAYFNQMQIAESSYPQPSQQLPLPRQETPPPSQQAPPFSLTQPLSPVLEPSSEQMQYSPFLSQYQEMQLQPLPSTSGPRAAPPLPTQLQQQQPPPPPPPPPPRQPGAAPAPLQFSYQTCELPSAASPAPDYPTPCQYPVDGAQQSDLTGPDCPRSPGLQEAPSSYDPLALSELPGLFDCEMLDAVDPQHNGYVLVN
O=C1NC(=O)C(c2cn(CCCO)c3ncccc23)=C1c1cnccn1: 101%
O=C1NC(=O)C(c2cn(CCCn3ccnc3)c3ccccc23)=C1Nc1ccccc1: 90.3%
COc1cc2nccc(Oc3ccc(NC(=S)NC(=O)c4ccccc4C)cc3)c2cc1OC: 97.8%
Oc1ccc(-c2nc(-c3ccncc3)c(-c3ccc(F)cc3)[nH]2)cc1: 83.4%
Cc1ccc(Nc2nccc(N(C)c3ccc4c(C)n(C)nc4c3)n2)cc1S(N)(=O)=O: 84.1%

Single results of other studies
Cc1ncc(-c2cc(Cl)ccc2F)cc1-n1c(=O)n(CC(N)=O)c2ccccc21
Ki (5-hydroxytryptamine receptor 2B (HTR2B, Homo sapiens, UniProt P41595); binding, radioligand binding): 1590 nM
